Published values from different studies.
Numbered parts are unrelated; each lists some results of a single study. Substitutions count along the parent as printed.

Study 1
Target: ABI1, truncated, D143A, DHFR fusion (Arabidopsis thaliana)
Method: DHFR PCA, deep sequencing
Matrix: yeast
Notes: methotrexate growth selection, single substitutions
Together with: (+)-ABA 4.8 µM
Reference: wild-type fitted maximum
Direction: higher = stronger binding
Starting sequence: PYL1, truncated, DHFR fusion (Arabidopsis thaliana); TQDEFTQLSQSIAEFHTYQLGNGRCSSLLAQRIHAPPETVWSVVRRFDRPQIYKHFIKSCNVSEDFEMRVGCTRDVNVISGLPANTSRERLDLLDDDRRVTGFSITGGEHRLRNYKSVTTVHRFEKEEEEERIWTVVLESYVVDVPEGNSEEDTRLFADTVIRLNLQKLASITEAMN; partner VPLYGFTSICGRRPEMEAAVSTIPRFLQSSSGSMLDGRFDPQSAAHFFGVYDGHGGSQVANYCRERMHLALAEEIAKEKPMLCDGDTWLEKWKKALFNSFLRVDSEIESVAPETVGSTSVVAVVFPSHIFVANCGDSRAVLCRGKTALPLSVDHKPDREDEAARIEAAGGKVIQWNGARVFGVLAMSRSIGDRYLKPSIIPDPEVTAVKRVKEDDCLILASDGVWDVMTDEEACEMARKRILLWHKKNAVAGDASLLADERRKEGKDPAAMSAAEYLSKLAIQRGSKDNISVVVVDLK
Under “relative binding score”, `Y141I` is recorded as 10.9%.
Under “relative binding score”, `P83K` is recorded as -5.25%.
For `T101R`, “relative binding score” read -6.15%.
`G102R` — result for “relative binding score”: -3.59%.
For `H34S`, “relative binding score” read 69%.
Under “relative binding score”, `V161E` is recorded as -5.33%.
`H34M` — result for “relative binding score”: 75.7%.
`N149P` — result for “relative binding score”: -0.222%.
`P50Y`: “relative binding score” 9.14%.
Under “relative binding score”, `E147H` is recorded as 63.2%.
Under “relative binding score”, `F15Q` is recorded as -3.37%.
Under “relative binding score”, `R123V` is recorded as 27.4%.
Under “relative binding score”, `Q51G` is recorded as 32%.
For `D48H`, “relative binding score” read 0.152%.
Under “relative binding score”, `F66H` is recorded as 42.3%.
Under “relative binding score”, `S63W` is recorded as 12.3%.

Study 2
Target: CCNB3, cyclin fold, Cln2 fusion (human)
Method: yeast growth competition, sequencing
Matrix: yeast
Notes: weak parent motif
Reference: not given
Direction: higher = stronger binding
Starting sequence: RB1 docking peptide (human); PKPLKKLRFDIEG; partner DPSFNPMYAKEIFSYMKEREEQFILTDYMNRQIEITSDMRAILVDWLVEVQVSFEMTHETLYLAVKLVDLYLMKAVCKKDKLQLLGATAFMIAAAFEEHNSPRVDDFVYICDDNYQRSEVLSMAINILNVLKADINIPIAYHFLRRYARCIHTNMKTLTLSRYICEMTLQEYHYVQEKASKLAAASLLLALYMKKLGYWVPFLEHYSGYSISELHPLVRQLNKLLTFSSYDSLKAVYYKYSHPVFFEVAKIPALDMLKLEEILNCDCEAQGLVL
`PKPLKKCRFDIEG [L7C]`: “normalised enrichment score” 0.221.
`PSPLKKLRFDIEG [K2S]`: “normalised enrichment score” 0.161.
`PKPLKKLDFDIEG [R8D]`: “normalised enrichment score” 0.319.
For `PDPLKKLRFDIEG [K2D]`, “normalised enrichment score” read -0.445.
For `PKCLKKLRFDIEG [P3C]`, “normalised enrichment score” read 0.521.
Under “normalised enrichment score”, `PKPLKKLRFDTEG [I11T]` is recorded as -0.483.
`PKPLKDLRFDIEG [K6D]`: “normalised enrichment score” 0.293.
`PKPLKKLRFDIEE [G13E]` — result for “normalised enrichment score”: 0.0998.
For `PKPLKKIRFDIEG [L7I]`, “normalised enrichment score” read 0.285.
`PKPLKKLRFDIEV [G13V]`: “normalised enrichment score” 0.155.
Under “normalised enrichment score”, `SKPLKKLRFDIEG [P1S]` is recorded as -0.287.
For `PKQLKKLRFDIEG [P3Q]`, “normalised enrichment score” read 0.124.
For `PKILKKLRFDIEG [P3I]`, “normalised enrichment score” read -0.00148.

Study 3
Target: Histone acetyltransferase KAT6A, winged helix 2, GST fusion (KAT6A, Homo sapiens, UniProt Q92794, residues 85-181)
Method: protein binding microarray
Form: double-stranded DNA, one strand shown
Matrix: in vitro
Tested at: not given
Notes: 8-mer, flanks averaged, mean of 2 arrays, mostly near background
Reference: not given
Direction: higher = stronger binding
Residues (chain): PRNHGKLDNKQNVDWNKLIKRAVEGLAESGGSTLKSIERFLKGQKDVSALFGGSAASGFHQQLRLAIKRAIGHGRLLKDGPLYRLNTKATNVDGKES
With `GGCGGAAA` the E-score was 0.0242.
With `CGTCAGAA` the E-score was -0.146.
The E-score of `CAATCTCA` is reported as -0.127.
`ACTTCTGA` gave an E-score of -0.0689.
`CGGGCTGC` gave an E-score of 0.236.
`CAGCGAGC` has an E-score of 0.118.
For `CGACTCTA`, the E-score was -0.0832.
The E-score of `ATAAGTAC` is reported as -0.173.
`GACAGCCA` gave an E-score of 0.117.
For `ACAGGTAT`, the E-score was -0.135.
With `ACTAACCC` the E-score was -0.119.
For `ATCCTTTA`, the E-score was -0.0368.

Single results of other studies
`PhoQ, residues 284 288 289 292 302 303 ASVMEA` has a fold induction of 19.1 (PhoP, residues 12 14 15 18 19 STWGI (Escherichia coli, UniProt P23836); Sort-seq, measured: YFP reporter; E. coli; PhoQ-PhoP variant library, together with: 10 µM Mg2+; reference: high Mg2+ state, higher = stronger signaling).

Some of these lines once more (study 3):
The E-score of `ATAAGTAC` is reported as -0.173.
With `GGCGGAAA` the E-score was 0.0242.
